Published values collected from several papers.
Each numbered part is a random draw from the data of one study; scales do not carry over between parts. Changes are numbered by the printed parent chain.

Sample 1
Target: CREBL2, bZIP domain (human)
Method: DHFR protein complementation
Sample: yeast
Notes: single substitutions, most at no-binding floor
Baseline: wild-type JUN-FOS pair
Reading: higher = stronger binding
Starting sequence: JUN, bZIP domain (human); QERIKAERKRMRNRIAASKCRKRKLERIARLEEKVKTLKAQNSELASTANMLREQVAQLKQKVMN; partner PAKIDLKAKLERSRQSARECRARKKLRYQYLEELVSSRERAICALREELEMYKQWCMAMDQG
For `E33H`, the binding fitness was -1.34 natural log.
For `M51T`, the binding fitness was -1.5 natural log.
`Q41V` has a binding fitness of -1.32 natural log.
For `E33S`, the binding fitness was -1.53 natural log.
`T48P` has a binding fitness of -1.52 natural log.
For `M51H`, the binding fitness was -1.56 natural log.
`E33W` gave a binding fitness of -1.3 natural log.
With `E32W` the binding fitness was -1.57 natural log.
With `Q41H` the binding fitness was -1.58 natural log.
`V35D` gave a binding fitness of -1.59 natural log.
`L52Y` has a binding fitness of -1.19 natural log.

Sample 2
Target: Histone acetyltransferase KAT6A, both winged helices, GST fusion (KAT6A, Homo sapiens, UniProt Q92794, residues 1-181)
Method: protein binding microarray
Form: double-stranded DNA, one strand shown
Sample: in vitro
Tested at: not given
Notes: 8-mer, flanks averaged, mean of 2 arrays, mostly near background
Baseline: not given
Reading: higher = stronger binding
Target sequence (chain): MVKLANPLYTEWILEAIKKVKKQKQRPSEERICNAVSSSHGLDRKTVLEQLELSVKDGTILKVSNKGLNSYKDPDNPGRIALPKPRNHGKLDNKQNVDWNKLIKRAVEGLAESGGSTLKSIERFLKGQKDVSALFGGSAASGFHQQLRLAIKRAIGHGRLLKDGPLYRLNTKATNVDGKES
`CTGGCTGA` gave an E-score of -0.229.
With `ACGTTTAA` the E-score was -0.131.
The E-score of `CGGACATC` is reported as 0.195.
With `CACTAAAC` the E-score was 0.062.
With `CTTCAAGA` the E-score was -0.1.
`GGGGGACC` has an E-score of -0.133.
With `AGGTTAAG` the E-score was -0.174.
The E-score of `GGTGTTAA` is reported as 0.0751.
For `AACGGTAG`, the E-score was 0.113.
With `TCATGGAA` the E-score was -0.0579.
With `TCAAGCGA` the E-score was 0.0589.
For `CTTCGTAA`, the E-score was 0.00624.
For `CCCTCTTC`, the E-score was -0.16.

Sample 3
Target: CCND3, cyclin fold, Cln2 fusion (human)
Method: yeast growth competition, sequencing
Sample: yeast
Notes: weak parent motif
Baseline: not given
Reading: higher = stronger binding
Starting sequence: CCP110 docking peptide (human); EKVKRRLDLDIDG
`EKVKRRLDLDADG [I11A]` — result for “normalised enrichment score”: 0.0797.
Under “normalised enrichment score”, `AKVKRRLDLDIDG [E1A]` is recorded as 0.134.
`EKVKRRLDLAIDG [D10A]`: “normalised enrichment score” 0.183.
Under “normalised enrichment score”, `EKVKRALDLDIDG [R6A]` is recorded as 0.113.
`EKVKRRLDFDIDG [L9F]`: “normalised enrichment score” 0.194.
Under “normalised enrichment score”, `EKVKRRLALDIDG [D8A]` is recorded as 0.136.
`EKAKRRLDLDIDG [V3A]` — result for “normalised enrichment score”: 0.122.

Mixed results
The fold induction of `PhoQ, residues 284 288 289 292 302 303 SCCLKL` is reported as 9.06 (PhoP, residues 12 14 15 18 19 GQAIL (Escherichia coli, UniProt P23836); Sort-seq, measured: YFP reporter; E. coli; PhoQ-PhoP variant library, added: 10 µM Mg2+; baseline: high Mg2+ state, higher = stronger signaling).

Repeated from above (sample 1):
`Q41V` has a binding fitness of -1.32 natural log.
For `E33S`, the binding fitness was -1.53 natural log.
`T48P` has a binding fitness of -1.52 natural log.
For `M51H`, the binding fitness was -1.56 natural log.
